# Assay results collected from several papers.
# Numbered parts are unrelated; each lists some results of a single study. Values joined by “and” are separate records of one study, mostly repeats; a detail may differ.

# Study 1 — effect on: enzyme activity; mode: inhibitor; tested at: 0.5 µM; relative to: control
# Target: Tyrosine-protein kinase Fer (FER, Homo sapiens, UniProt P16591)
# Sequence of UniProt P16591 (whole entry, looked up): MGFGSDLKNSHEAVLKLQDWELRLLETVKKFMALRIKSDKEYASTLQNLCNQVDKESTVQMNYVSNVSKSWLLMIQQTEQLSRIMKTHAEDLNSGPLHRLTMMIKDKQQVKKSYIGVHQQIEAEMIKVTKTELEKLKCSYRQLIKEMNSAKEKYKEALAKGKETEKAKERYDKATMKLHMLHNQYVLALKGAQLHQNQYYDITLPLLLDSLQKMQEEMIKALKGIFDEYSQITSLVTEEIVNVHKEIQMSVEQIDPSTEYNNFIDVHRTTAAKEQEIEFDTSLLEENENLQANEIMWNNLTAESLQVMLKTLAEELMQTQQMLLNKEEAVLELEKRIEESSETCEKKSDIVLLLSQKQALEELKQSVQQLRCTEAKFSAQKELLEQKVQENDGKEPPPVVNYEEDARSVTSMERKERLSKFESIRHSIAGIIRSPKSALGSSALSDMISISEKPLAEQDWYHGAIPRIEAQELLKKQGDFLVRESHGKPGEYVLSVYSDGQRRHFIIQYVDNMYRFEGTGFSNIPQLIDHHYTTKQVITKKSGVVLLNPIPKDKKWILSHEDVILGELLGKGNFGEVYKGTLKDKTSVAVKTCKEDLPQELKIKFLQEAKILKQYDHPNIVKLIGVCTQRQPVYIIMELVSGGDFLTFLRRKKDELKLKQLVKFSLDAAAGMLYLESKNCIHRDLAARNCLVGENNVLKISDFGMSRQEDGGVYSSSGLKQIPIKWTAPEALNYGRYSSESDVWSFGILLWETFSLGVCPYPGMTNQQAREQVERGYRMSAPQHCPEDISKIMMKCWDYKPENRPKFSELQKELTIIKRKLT
SMILES,remaining activity
CC(C)(C)c1nc2c3cc[nH]c(=O)c3c3cc(F)ccc3c2[nH]1,34%
COc1cc2c(Nc3ccc(Br)cc3F)ncnc2cc1OCC1CCN(C)CC1,95.8%
O=C(O)/C=C/c1cc(Br)c(Br)c(Br)c1Br,96.6%
O=C1NC(=O)/C(=C/c2ccc3c(c2)OC(F)(F)O3)S1,97.2%
CCN(CC)CCCCN1c2ccccc2Oc2ccc(Cl)cc21,102%
Clc1ccc(Nc2nnc(Cc3ccncc3)c3ccccc23)cc1,91.4%
O=C(c1ccccc1)c1ccc(N2CCOCC2)cc1O,94.2%
Nc1nc(Nc2ccc(S(N)(=O)=O)cc2)nn1C(=S)Nc1c(F)cccc1F,21.7%
CC(C)N(CCC(=O)c1ccc2ccccc2c1)Cc1ccccc1,105%
O=C1c2ccccc2-c2nc3nnnn3nc21,89.1%
O=c1c(-c2ccc(F)cc2)c(-c2ccncc2)[nH]n1-c1ccc(Cl)cc1,94.3%
NC(=O)c1cccc(-c2cc(Nc3ccc(OC(F)(F)F)cc3)ncn2)c1,105%
NC(=O)c1ccc(-c2nc(-c3ccc4c(c3)OCCO4)c(-c3ccccn3)[nH]2)cc1,93.3%
CC(C)n1cnc2c(Nc3cccc(Cl)c3)nc(NCCO)nc21,79.5%
CCCCc1c(-c2ccc(O)cc2)[nH]c2nccnc12,55.6%
c1cc(-c2cnn3cc(-c4ccc(OCCN5CCCCC5)cc4)cnc23)ccn1,93.3%
CNc1cc2c(Nc3cccc(Br)c3)ncnc2cn1,97.1%
FC(F)(F)c1ccc(/C=C/c2nc(COc3ccc(CCCCn4ccnn4)cc3)co2)cc1,102%
N#C/C(=C(/N)SC1C=CC=CC1)c1cccc(C(O)c2ccncc2)c1 (stereo not drawn),94.2%

# Study 2 — cell line: normal-adjacent organoid sample F; technique: CellTiter-Glo; tested at: 1 µM; setting: replicate mean; relative to: DMSO
Structure (SMILES),viability [%]
O=c1nc(-c2ccccn2)sc2ccccc12,99.6
CN(C)C(=O)Cn1cc(-c2nc(C3(c4ccc(-c5cnc(N)nc5)cc4)CC3)no2)cn1,106
CCOCCn1cc(C(=O)Nc2ccc(-n3nc(-c4cccnc4)cc3C(F)(F)F)cn2)ccc1=O,99.4
Cc1c(Oc2ccc(F)cc2)c(OC(C)C)nn1-c1ccc(C2CC2)cn1,160
c1ccc(N2CCN(Cc3nc4ccccc4[nH]3)CC2)nc1,110
CC(=O)Nc1c(F)cc(C(=O)N[C@H]2CC[C@H](O)CC2)cc1O[C@@H](C)c1ccccc1,76.2
CO[C@@H](C)c1c(Nc2ccc([C@@H](N(C)C(=O)C3CCS(=O)(=O)CC3)C(F)(F)F)cc2)cnc2cc(Cl)nn12,147
Cc1c(NC(=O)c2ccc(C(C)(C)C)cc2)cccc1-c1cn(C)c(=O)c(Nc2ccc(C(=O)N3CCOCC3)cc2)n1,149
CNCc1ccccc1-c1csc([C@@H](C)Nc2nc(C)nc3cc(OC)c(OC)cc23)c1,89.3
O=C(NS(=O)(=O)c1ccc(NCC2CCOCC2)c([N+](=O)[O-])c1)c1ccc(N2CCN(Cc3ccc(C(F)(F)F)cc3-c3ccc(Cl)cc3)CC2)cc1Oc1cnc2[nH]ccc2c1,118
O=C(Nc1cnc(Oc2ccc(F)cc2)nc1)N1CCc2ncccc2[C@@H]1c1ccc(F)cc1,108
Cc1c(N2CCCC2)nc2ccc(Br)cc2c1C(=O)NC[C@H](CCC(=O)O)c1ccccc1Cl,123
CCS(=O)(=O)c1cc2cc(C[C@](O)(CC(C)(C)c3ccc(F)cc3C(N)=O)C(F)(F)F)[nH]c2cn1,112

# Study 3 — cell line: mouse MPNST tumor cells; technique: high-content immunofluorescence imaging; item: nuclear SOX9; tested at: 10 µM; time: 12 h; setting: mean of 2 replicates; relative to: DMSO control; direction: higher = more nuclear SOX9
SMILES,nuclear SOX9 intensity
O=C1c2cccc(O)c2C(=O)c2c(O)cccc21,121 % of DMSO
Cc1cc(C2CCCCC2)n(O)c(=O)c1,158 % of DMSO
COc1ccc(CC2NCCc3c2[nH]c2ccc(C)cc32)cc1OC (stereo not drawn),174 % of DMSO
Cc1ccc(O)c([C@H](CCN(C(C)C)C(C)C)c2ccccc2)c1,143 % of DMSO and 147 % of DMSO
COc1ccc(S(=O)(=O)Nc2cc(Cl)cc(Cl)c2OC)cc1N1CCNCC1,131 % of DMSO
CCOc1ncc(S(=O)(=O)N2CCN(CC)CC2)cc1-c1nc2c(CC)n(CCOC)nc2c(=O)[nH]1,91.1 % of DMSO
CCOc1ccc2ccccc2c1C(=O)N[C@@H]1C(=O)N2[C@@H]1SC(C)(C)[C@@H]2C(=O)O,93.2 % of DMSO
COc1cc(NC(=O)c2ccc(-c3ccc(Cl)cc3)o2)cc(OC)c1,120 % of DMSO
CCCn1c(=O)[nH]c2nc(-c3ccc(S(=O)(=O)N4CCN(c5ccc(Cl)cc5)CC4)cc3)[nH]c2c1=O,106 % of DMSO

# Study 4 — cell line: Huh-7; tested at: 10 µM; time: 24 h
Compound,viability [%]
CC(=O)OCC(=O)[C@@]1(O)[C@H](OC(C)=O)C[C@H]2[C@@H]3CCC4=CC(=O)C=C[C@]4(C)[C@@]3(F)[C@@H](O)C[C@@]21C,99.3
Cc1ncc([N+](=O)[O-])n1CCO,104
NC(=O)CC[C@H](N)C(=O)O,103
CC1=C(CC(=O)O)c2cc(F)ccc2/C1=C\c1ccc([S+](C)[O-])cc1 (stereo not drawn),100
O=C(O)c1cc(=O)c2c(OCC(O)COc3cccc4oc(C(=O)O)cc(=O)c34)cccc2o1,103
N[C@@H](C(=O)N[C@@H]1C(=O)N2C(C(=O)O)=C(Cl)CS[C@H]12)c1ccccc1,100
COc1cc(C(=O)NCCCCCC(=O)O)cc(OC)c1OC,97.8
CC(=O)c1ccc2c(c1)N(CCCN(C)C)c1ccccc1S2,99.1
COC(=O)[C@H]1[C@H]2C[C@@H]3c4[nH]c5cc(OC)ccc5c4CCN3C[C@H]2C[C@@H](OC(=O)c2cc(OC)c(OC)c(OC)c2)[C@@H]1OC,96.9
Cc1c(OCC(F)(F)F)ccnc1C[S+]([O-])c1nc2ccccc2[nH]1 (stereo not drawn),94.8

# Excerpt of the above (study 1):
SMILES,remaining activity
NC(=O)c1ccc(-c2nc(-c3ccc4c(c3)OCCO4)c(-c3ccccn3)[nH]2)cc1,93.3%
O=c1c(-c2ccc(F)cc2)c(-c2ccncc2)[nH]n1-c1ccc(Cl)cc1,94.3%
NC(=O)c1cccc(-c2cc(Nc3ccc(OC(F)(F)F)cc3)ncn2)c1,105%
